Measured values collected from several papers.
Every numbered part comes from another study and shows a few of its results, in no order. Values joined by “and” are separate records of one study, mostly repeats; a detail may differ.
Sequence of UniProt P41279 (whole entry, looked up): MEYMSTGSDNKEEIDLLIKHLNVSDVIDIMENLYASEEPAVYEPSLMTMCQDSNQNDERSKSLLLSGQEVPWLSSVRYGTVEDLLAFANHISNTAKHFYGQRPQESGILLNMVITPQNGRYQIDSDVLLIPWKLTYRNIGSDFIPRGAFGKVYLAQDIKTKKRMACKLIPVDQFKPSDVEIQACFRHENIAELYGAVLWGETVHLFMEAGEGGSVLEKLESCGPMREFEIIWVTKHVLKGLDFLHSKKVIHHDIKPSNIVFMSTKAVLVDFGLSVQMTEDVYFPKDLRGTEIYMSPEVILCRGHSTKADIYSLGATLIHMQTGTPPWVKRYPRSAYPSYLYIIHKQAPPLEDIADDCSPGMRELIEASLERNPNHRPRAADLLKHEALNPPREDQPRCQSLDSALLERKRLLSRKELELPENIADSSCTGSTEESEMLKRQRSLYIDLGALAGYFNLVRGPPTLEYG
Sequence of UniProt Q15139 (whole entry, looked up): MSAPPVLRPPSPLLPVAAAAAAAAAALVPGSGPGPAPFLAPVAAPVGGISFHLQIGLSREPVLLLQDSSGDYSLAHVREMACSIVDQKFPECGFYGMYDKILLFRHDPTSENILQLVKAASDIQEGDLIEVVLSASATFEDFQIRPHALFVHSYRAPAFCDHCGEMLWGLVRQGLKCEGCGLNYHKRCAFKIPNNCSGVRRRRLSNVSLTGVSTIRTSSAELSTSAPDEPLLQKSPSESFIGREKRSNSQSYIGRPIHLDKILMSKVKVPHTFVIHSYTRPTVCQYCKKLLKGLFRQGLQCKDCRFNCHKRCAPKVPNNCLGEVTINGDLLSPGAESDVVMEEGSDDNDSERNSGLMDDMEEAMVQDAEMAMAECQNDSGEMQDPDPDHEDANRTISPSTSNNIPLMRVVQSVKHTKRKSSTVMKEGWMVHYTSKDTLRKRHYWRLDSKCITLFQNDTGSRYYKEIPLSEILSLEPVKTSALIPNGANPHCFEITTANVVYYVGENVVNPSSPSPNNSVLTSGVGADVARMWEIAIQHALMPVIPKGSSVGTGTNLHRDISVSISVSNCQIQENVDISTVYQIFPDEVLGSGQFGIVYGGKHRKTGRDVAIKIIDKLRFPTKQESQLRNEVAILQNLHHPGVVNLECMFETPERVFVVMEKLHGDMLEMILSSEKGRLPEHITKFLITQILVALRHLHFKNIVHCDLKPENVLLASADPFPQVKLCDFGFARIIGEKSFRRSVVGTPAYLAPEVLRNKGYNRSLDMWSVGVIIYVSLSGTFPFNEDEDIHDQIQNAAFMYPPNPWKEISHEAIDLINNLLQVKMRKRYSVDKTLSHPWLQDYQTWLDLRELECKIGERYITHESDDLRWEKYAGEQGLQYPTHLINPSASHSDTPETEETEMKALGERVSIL
Sequence of UniProt P07949 (whole entry, looked up): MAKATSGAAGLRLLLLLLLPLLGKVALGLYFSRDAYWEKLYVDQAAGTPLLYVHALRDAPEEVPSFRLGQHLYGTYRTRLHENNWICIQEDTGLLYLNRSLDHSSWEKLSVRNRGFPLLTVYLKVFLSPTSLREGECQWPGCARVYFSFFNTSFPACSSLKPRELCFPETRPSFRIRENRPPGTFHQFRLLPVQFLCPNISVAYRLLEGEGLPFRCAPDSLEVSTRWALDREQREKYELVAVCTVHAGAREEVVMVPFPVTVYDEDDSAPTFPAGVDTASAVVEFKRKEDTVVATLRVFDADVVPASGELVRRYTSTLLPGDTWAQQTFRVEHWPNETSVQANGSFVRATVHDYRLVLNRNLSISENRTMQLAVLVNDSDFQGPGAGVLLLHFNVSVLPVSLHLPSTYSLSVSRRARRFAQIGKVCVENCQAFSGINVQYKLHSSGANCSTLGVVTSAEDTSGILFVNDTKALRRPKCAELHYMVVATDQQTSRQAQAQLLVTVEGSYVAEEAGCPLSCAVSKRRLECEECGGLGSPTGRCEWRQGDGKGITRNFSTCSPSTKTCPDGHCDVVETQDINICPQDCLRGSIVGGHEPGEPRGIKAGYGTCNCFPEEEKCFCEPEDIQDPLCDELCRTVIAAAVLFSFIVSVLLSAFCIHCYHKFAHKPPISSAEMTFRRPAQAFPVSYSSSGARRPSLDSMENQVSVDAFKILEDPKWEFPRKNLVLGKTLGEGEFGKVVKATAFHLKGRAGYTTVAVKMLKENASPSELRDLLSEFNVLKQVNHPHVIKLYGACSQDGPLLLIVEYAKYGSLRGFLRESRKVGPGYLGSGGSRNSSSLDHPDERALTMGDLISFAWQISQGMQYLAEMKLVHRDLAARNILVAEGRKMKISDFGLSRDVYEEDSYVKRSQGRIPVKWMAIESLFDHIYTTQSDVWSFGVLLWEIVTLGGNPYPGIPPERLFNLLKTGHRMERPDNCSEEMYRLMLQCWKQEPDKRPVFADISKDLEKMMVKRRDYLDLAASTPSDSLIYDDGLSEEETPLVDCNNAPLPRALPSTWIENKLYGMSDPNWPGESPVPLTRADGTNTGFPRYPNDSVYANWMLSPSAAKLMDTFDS
Sequence of UniProt Q16513 (whole entry, looked up): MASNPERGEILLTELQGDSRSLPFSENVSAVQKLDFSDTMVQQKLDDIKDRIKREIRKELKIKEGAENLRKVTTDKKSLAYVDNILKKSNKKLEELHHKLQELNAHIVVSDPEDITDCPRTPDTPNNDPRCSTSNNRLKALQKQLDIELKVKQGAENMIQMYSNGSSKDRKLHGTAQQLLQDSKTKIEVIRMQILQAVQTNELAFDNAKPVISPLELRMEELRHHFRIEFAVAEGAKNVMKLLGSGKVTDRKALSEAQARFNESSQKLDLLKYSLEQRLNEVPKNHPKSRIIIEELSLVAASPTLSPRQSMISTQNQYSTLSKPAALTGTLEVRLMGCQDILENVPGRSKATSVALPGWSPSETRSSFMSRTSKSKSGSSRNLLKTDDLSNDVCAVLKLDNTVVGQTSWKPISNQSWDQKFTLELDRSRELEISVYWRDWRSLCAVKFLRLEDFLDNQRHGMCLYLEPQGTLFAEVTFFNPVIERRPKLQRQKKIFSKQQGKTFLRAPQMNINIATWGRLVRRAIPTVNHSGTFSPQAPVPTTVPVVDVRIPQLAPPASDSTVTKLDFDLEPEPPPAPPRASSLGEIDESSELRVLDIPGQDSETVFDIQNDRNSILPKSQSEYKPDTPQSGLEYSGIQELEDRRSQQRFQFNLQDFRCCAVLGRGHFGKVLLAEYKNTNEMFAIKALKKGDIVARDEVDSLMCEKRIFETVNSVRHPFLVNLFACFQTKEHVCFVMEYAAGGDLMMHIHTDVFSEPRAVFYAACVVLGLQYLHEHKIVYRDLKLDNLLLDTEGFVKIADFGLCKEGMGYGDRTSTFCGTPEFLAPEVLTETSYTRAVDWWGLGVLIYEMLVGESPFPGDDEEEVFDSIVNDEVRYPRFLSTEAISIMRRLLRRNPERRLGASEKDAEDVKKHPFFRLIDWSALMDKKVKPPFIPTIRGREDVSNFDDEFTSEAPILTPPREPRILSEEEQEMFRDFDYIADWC
Sequence of UniProt Q9Y2U5 (whole entry, looked up): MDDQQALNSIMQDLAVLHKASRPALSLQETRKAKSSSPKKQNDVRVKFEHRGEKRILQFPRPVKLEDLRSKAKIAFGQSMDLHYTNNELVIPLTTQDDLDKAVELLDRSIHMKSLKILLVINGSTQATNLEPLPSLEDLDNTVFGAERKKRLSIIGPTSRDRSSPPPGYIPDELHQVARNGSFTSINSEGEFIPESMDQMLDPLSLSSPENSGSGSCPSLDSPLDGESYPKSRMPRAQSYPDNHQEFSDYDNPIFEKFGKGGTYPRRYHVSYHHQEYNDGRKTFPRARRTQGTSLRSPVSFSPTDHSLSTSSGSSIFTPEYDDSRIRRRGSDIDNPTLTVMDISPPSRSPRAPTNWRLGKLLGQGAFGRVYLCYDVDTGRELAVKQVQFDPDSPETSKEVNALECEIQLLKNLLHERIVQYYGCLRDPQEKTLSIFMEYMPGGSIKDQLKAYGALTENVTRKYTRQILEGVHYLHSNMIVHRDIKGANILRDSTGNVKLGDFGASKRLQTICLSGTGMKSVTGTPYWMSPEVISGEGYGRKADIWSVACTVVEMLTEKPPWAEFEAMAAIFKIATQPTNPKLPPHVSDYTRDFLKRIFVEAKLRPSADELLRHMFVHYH
Sequence of UniProt P53779 (whole entry, looked up): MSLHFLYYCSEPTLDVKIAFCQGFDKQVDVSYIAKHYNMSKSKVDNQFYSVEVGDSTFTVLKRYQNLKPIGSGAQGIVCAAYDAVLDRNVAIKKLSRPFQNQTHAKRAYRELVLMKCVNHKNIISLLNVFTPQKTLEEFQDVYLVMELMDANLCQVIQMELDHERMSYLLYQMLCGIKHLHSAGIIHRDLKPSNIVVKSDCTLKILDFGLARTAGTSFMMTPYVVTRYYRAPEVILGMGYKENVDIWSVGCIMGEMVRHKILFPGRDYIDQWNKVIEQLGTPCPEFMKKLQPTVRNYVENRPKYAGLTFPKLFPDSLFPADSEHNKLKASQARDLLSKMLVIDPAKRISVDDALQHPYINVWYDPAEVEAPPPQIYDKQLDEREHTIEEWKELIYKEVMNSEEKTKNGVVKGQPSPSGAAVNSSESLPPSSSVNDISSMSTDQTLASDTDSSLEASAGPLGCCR
Sequence of UniProt P50613 (whole entry, looked up): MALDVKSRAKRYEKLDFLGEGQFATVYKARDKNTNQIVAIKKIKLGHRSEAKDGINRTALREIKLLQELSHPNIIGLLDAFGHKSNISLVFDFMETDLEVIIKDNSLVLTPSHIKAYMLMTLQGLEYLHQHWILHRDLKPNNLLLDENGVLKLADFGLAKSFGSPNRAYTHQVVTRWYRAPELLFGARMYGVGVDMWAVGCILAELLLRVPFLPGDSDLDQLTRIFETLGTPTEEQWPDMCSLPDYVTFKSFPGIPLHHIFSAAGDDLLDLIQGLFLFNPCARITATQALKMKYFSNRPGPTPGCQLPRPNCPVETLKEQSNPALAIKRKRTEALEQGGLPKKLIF

Set 1
SMILES: CCOc1ccc(Nc2c3c(nc4ccccc24)CCC3)cc1
Organism: Leishmania donovani
Strain: DD8
Sample: promastigotes
setting	promastigote number
6.66 µM, 72 h	251000 and 221000
0.16 µM, 48 h	4.37e+06 and 4.33e+06
1.66 µM, 48 h	4.37e+06 and 4.33e+06
66.66 µM, 48 h	1550 and 1250
0.33 µM, 48 h	4.33e+06 and 4.7e+06
0.03 µM, 48 h	4.7e+06 and 4.37e+06
3.33 µM, 48 h	2.25e+06 and 2.22e+06
66.66 µM, 72 h	1250 and 1550

Set 2
Structure (SMILES): CCOc1cc2ncnc(Nc3cccc(Br)c3)c2cc1OCC
Effect on: enzyme activity
Mode: inhibitor
Concentration: 0.5 µM
Relative to: control
target	remaining activity
MAPK10 (Homo sapiens, UniProt P53779)	101%
ROS1 (Homo sapiens, UniProt P08922)	102%
DMPK (Homo sapiens, UniProt Q09013)	102%
DYRK4 (Homo sapiens, UniProt Q9NR20)	96.9%
PRKD1 (Homo sapiens, UniProt Q15139)	95.4%
ROCK2 (Homo sapiens, UniProt O75116)	91.8%
SLK (Homo sapiens, UniProt Q9H2G2)	64.8%
Aurora kinase A (AURKA, Homo sapiens, UniProt O14965)	110%
HIPK3 (Homo sapiens, UniProt Q9H422)	102%
GRK5 (Homo sapiens, UniProt P34947)	104%
CDK7 (Homo sapiens, UniProt P50613)	93%
Cyclin-dependent kinase 2, with cyclin A (CDK2, Homo sapiens, UniProt P24941)	91.9%
MAP3K8 (Homo sapiens, UniProt P41279)	106%
PKN2 (Homo sapiens, UniProt Q16513)	90%
RET (Homo sapiens, UniProt P07949)	39.3%
CAMK1G (Homo sapiens, UniProt Q96NX5)	97.2%
NTRK3 (Homo sapiens, UniProt Q16288)	91.5%
PTK2B (Homo sapiens, UniProt Q14289)	95.8%
MAP3K2 (Homo sapiens, UniProt Q9Y2U5)	102%
CSNK2A2 (Homo sapiens, UniProt P19784)	93.8%
BRSK1 (Homo sapiens, UniProt Q8TDC3)	86.1%

Set 3
Cell line: normal-adjacent organoid sample F
Method: CellTiter-Glo
Concentration: 1 µM
Notes: replicate mean
Relative to: DMSO
Structure (SMILES)	viability [%]
Cc1noc([C@H]2C[C@@H](c3ccc(C(F)(F)F)cc3)CN(C(=O)N3CCS(=O)(=O)C3)C2)n1	100
C[C@H](c1ccc(F)cc1)N(Cc1ccc(Cl)c(C(=O)O)c1)C(=O)c1cnc2ccccc2c1	99.5
Cn1cncc1[C@](O)(COc1ccc(C#N)cc1-c1ccc(OC(F)(F)F)cc1)c1ccc(C#N)cc1	57.3
CNc1nc(-c2ccc3c(N)n[nH]c3c2)cc(N2C[C@@H](C(=O)NC3CCCCC3)CC[C@H]2C)n1	105
C[C@@H](c1cccc(C#N)c1)n1cc(Cl)cc(C(N)=O)c1=N	90.5
CNC(=O)c1ccccc1Nc1cc(Nc2ccc(N3CCOCC3)cc2OC)ncc1C(F)(F)F	29.7
CC1=C(C#N)C(c2ccc3c(c2)c(NC(=O)c2ccccc2C)nn3C)C(C#N)=C(C)N1	96.4
CN(c1ccnc(CNc2nc(Nc3ccc4c(c3)CC(=O)N4)ncc2C(F)(F)F)n1)S(C)(=O)=O	106
CNC(=O)c1cc(C(=O)N[C@H]2[C@@H]3COC[C@@H]32)cc2c1O[C@H](CF)[C@H]2c1ccccc1	87.6
Nc1nc(NCc2ccccc2)nc(-c2cccc(CO)c2)n1	141

Set 4
Compound: CN1CCC[C@H]1COc1nc2c(c(N3CCN(S(C)(=O)=O)[C@@H](CC#N)C3)n1)CCN(c1cccc3cccc(Cl)c13)C2
Effect on: binding
Mode: competitor
Method: NanoBRET
Cell line: HEK293
KRAS Q61R: GTPase KRas (KRAS, Homo sapiens, UniProt P01116, Q61R)
target	setting	normalized BRET
GTPase KRas (KRAS, Homo sapiens, UniProt P01116, G12D)	412 nM	96.2% and 87.8% and 88.6%
KRAS Q61R	5.08 nM	85.6% and 94.1% and 99.5%
KRAS Q61R	412 nM	76.3% and 81.4% and 96.9%
GTPase KRas (KRAS, Homo sapiens, UniProt P01116, Q61H)	1.24 µM	47.7% and 43.7% and 38.7%

Repeated from above (set 3):
Structure (SMILES)	viability [%]
Cn1cncc1[C@](O)(COc1ccc(C#N)cc1-c1ccc(OC(F)(F)F)cc1)c1ccc(C#N)cc1	57.3
CNc1nc(-c2ccc3c(N)n[nH]c3c2)cc(N2C[C@@H](C(=O)NC3CCCCC3)CC[C@H]2C)n1	105
C[C@@H](c1cccc(C#N)c1)n1cc(Cl)cc(C(N)=O)c1=N	90.5
CNC(=O)c1ccccc1Nc1cc(Nc2ccc(N3CCOCC3)cc2OC)ncc1C(F)(F)F	29.7
CC1=C(C#N)C(c2ccc3c(c2)c(NC(=O)c2ccccc2C)nn3C)C(C#N)=C(C)N1	96.4
CN(c1ccnc(CNc2nc(Nc3ccc4c(c3)CC(=O)N4)ncc2C(F)(F)F)n1)S(C)(=O)=O	106
CNC(=O)c1cc(C(=O)N[C@H]2[C@@H]3COC[C@@H]32)cc2c1O[C@H](CF)[C@H]2c1ccccc1	87.6
